Published values of several laboratories.
Lines come from different studies, so protocols differ. ± marks the error that the study gave.
UniProt Q92973, sequence (whole entry, looked up): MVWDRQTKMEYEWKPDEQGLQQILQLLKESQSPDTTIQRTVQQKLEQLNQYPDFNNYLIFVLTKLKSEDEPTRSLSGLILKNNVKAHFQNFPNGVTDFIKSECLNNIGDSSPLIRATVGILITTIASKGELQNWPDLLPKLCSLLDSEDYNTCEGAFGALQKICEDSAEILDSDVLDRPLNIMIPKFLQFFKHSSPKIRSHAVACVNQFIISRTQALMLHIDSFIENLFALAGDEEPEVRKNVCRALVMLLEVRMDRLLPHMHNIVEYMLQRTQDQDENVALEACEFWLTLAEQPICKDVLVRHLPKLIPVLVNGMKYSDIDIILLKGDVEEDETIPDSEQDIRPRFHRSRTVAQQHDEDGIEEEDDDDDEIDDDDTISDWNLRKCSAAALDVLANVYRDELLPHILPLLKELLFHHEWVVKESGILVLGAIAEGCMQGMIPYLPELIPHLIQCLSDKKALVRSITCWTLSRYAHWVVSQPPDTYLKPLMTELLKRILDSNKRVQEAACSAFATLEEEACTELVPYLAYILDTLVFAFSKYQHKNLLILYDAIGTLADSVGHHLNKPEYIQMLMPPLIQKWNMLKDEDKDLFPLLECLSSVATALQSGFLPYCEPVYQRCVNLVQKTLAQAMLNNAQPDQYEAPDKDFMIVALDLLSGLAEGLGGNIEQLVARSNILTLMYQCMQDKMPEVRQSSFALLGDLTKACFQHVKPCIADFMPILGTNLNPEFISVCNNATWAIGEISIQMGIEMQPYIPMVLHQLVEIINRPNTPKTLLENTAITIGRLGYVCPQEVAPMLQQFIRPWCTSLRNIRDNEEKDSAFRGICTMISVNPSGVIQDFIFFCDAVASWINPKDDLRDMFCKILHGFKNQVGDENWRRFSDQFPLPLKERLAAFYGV
UniProt O94768, sequence (whole entry, looked up): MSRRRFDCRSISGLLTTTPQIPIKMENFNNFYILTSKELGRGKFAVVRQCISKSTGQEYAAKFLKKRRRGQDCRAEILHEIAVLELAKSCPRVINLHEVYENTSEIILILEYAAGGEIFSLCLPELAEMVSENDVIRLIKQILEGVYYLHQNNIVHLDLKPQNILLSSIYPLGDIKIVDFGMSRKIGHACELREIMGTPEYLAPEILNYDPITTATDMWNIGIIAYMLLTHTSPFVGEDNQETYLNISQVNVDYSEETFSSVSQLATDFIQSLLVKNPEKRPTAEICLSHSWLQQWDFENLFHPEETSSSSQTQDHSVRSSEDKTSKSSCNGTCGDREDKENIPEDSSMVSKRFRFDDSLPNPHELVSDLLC
UniProt P14091, sequence (whole entry, looked up): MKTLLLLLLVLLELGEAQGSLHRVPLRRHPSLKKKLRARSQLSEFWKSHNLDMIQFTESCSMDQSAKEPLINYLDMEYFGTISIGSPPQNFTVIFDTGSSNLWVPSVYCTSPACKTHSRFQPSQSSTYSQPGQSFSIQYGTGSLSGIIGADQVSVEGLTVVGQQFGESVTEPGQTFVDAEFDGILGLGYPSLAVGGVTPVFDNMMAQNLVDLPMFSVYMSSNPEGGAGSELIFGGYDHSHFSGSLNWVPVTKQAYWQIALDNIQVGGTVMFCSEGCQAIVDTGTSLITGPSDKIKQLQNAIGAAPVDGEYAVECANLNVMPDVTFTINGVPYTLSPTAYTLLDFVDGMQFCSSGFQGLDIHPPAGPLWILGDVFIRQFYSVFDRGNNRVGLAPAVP

CC[C@H](C)[C@@H]1NC(=O)[C@@H]2CCCN2C(=O)[C@H](CC(C)C)NC(=O)[C@H](CC(C)C)NC(=O)CNC(=O)[C@@H](NC(=O)[C@@H](NC(=O)[C@H](CC(=O)O)NC(=O)CNC(=O)[C@@H](NC(=O)[C@H](C)NC(=O)CNC(=O)[C@H](CCCCN)NC(=O)[C@H](CC(C)C)NC(=O)[C@H](CC(C)C)NC(=O)[C@H](CCCCN)NC(=O)CNC(=O)[C@@H](NC(=O)[C@@H](N)CC(C)C)C(C)C)C(C)C)C(C)C)CSSC[C@@H](C(=O)O)NC1=O
log2 fold change (RNA-seq, item: Ncf4; mouse, traumatic brain injury model, frontal cortex and hippocampus; dose not given; baseline: TBI alone): -2.52

[2H]c1c([2H])c([C@]2([2H])CCCN2C(=O)C(C)(C)Oc2ccc3cn[nH]c3c2)c([2H])c([2H])c1C([2H])([2H])[2H]
remaining binding (STK17B (Homo sapiens, UniProt O94768); KINOMEscan; 1 µM; baseline: DMSO control): 65%

C[C@H]1CN(c2n[nH]c3nc(N[C@H]4CC[C@H](NS(=O)(=O)CCC(F)(F)F)CC4)ncc23)CCO1
relative abundance (Transportin-1 (TNPO1, Homo sapiens, UniProt Q92973); inhibitor, Kinobeads competition profiling; 0.16 µM; baseline: vehicle): 0.94

O=S(=O)([O-])C(F)(F)C(F)(F)C(F)(F)C(F)(F)C(F)(F)C(F)(F)C(F)(F)C(F)(F)F.[K+]
mRNA level (RT-qPCR, item: Pxr; mouse, ethanol-fed, liver; dose not given; baseline: efavirenz): increased

COc1ncccc1-c1cnn2ccc(N3CCN(C(=O)OC(C)C)CC3)nc12
free drug concentration (rat, CCI mechanical allodynia model, plasma; oral, 1 mg/kg, 240 min): 4.4 nM

NCCCC[C@@H]1NC(=O)[C@@H](Cc2c[nH]c3ccccc23)NC(=O)[C@H](c2ccccc2)NC(=O)[C@@H]2C[C@@H](OC(=O)NCCN)CN2C(=O)[C@H](Cc2ccccc2)NC(=O)[C@H](Cc2ccc(OCc3ccccc3)cc2)NC1=O
QTcI change from baseline (healthy volunteers; subcutaneous, 600 µg twice daily, day 5, 12.00 h): 0.9 ms

[O-][S+]1CCc2nc(N3CCC(c4ncc(Cl)cn4)CC3)nc(NC3(CO)CCC3)c21 (centres unmarked)
Diarrhoea adverse events (idiopathic pulmonary fibrosis patients; 18 mg twice daily): 40%

CCN1[C@@H](C(=O)NC23CCC(C(=O)O)(CC2)CC3)[C@H](c2cccc(Cl)c2F)[C@]2(C(=O)Nc3cc(Cl)ccc32)C12CCCCC2
Fatigue incidence (patients with advanced solid tumours; oral, 100 mg): 9.1%

COc1ccc(-c2c(-c3ccc(C#N)c(F)c3)nc(N3CCC(N)CC3)n(C)c2=O)cc1F
grade 3-4 TRAE incidence (item: ≥1 grade 3-4 TRAE; neuroendocrine neoplasm patients; oral, 60 mg, dose expansion): 44%

COc1cc2c(Oc3ccc4[nH]c(C)cc4c3F)ccnc2cc1OCC1(N)CC1
grade 1 or 2 Hyperthyroidism (paediatric recurrent refractory sarcoma; 12 mg): 9.1%

COc1ccc2c(c1)CN(C(=O)CCN1CCC(Cc3ccccc3)CC1)CC[S@@+]2[O-]
QTcF prolongation (female beagle dogs, chronic AV block; intravenous, 3 mg/kg, 1 h; baseline: before dosing): 20 ms

COc1ccc2nc3cc(Cl)ccc3c(Nc3cc(CN4CCCC4)c(O)c(CN4CCCC4)c3)c2n1
AST activity (mouse, blood; intraperitoneal, 14 mg/kg): 50.7 U/L

Cc1ccc(F)c2cc(C(=O)N[C@@H]3CCC[C@H](N4CC[C@H](N(C)S(C)(=O)=O)C4)C3)[nH]c12
plasma concentration (CD1 mouse, plasma; intravenous, 1 mg/kg, 10 h): 3.15 ng/mL

Nc1nc2cc(-c3ccc4ncc(C(=O)N5CCOCC5)n4c3)ccc2o1
serious adverse events (human, advanced solid tumours; 100–300 mg once daily, all-cause): 46%

CCCCCCCC(=O)N[C@@H](CCCCN)C(=O)N[C@@H](CCCCN)C(=O)N[C@@H](C)C(=O)N[C@@H](CC(C)C)C(=O)N[C@@H](CCCCN)C(=O)N[C@@H](CC(C)C)C(=O)N[C@@H](C)C(=O)N[C@@H](CCCCN)C(=O)N[C@@H](CCCCN)C(=O)N1CCC[C@H]1C(=O)N[C@@H](CC(C)C)C(=O)N[C@@H](CCCCN)C(=O)N[C@@H](CC(C)C)C(=O)N[C@@H](CC(C)C)C(=O)N[C@@H](CCCCN)C(N)=O
AUC(0-inf) (female ICR CD-1 mice, whole blood; intravenous bolus, 3 mg/kg): 276 ± 29 ng·h/mL

CC(C)[C@H](O)C(=O)N[C@H]1Cc2ccc3c(c2)[C@]2(C4=C(c5nc(CO)co5)N=C(O4)[C@H](C(C)(C)C)NC1=O)c1cc(F)ccc1N[C@@H]2O3
Cmax (NSG mice, heart; intravenous, 10 mg/kg, single dose at MTD, added: paclitaxel 40 mg/kg): 1300 ng/mL

CO[C@H]1C[C@@H]2CC[C@@H](C)[C@@](O)(O2)C(=O)C(=O)N2CCCC[C@H]2C(=O)O[C@H]([C@H](C)C[C@@H]2CC[C@@H](OC(=O)NCCOCCOCCOCCOCCOCCOCCOCCOCCC(=O)N3CCc4cc(Cn5nc(-c6ccc7oc(N)nc7c6)c6c(N)ncnc65)ccc4C3)[C@H](OC)C2)C[C@@H](O)[C@H](C)/C=C(\C)[C@@H](O)[C@@H](OC)C(=O)[C@H](C)C[C@H](C)/C=C/C=C/C=C/1C
vomiting incidence (patients with advanced solid tumours; intravenous, 6 mg weekly, any grade): 50%

COc1cc(Nc2ncc(F)c(Nc3ccc4c(n3)NC(=O)C(C)(C)O4)n2)cc(OC)c1OC
IC50 (Cathepsin E (CTSE, Homo sapiens, UniProt P14091)): > 10 µM

COc1c(CCC[P+](c2ccccc2)(c2ccccc2)c2ccccc2)cc2c(c1OC)OCO2.[I-]
GI50 (PC-3; SRB): -6.02 log M

C[C@@H](O)[C@H](NC(=O)[C@@H]1CSSC[C@H](NC(=O)[C@@H](Cc2ccccc2)NC(=O)CN2CCN(CC(=O)[O-])CCN(CC(=O)[O-])CCN(CC(=O)[O-])CC2)C(=O)N[C@@H](Cc2ccc(O)cc2)C(=O)N[C@H](Cc2c[nH]c3ccccc23)C(=O)N[C@@H](CCCCN)C(=O)N[C@@H]([C@@H](C)O)C(=O)N1)C(=O)O.[177Lu+3]
uptake (MEC1 treated with 50 µM zebularine; gamma counter; serum-free RPMI; 30 min, 37 °C): 1.01%

A few entries again:
COc1cc(Nc2ncc(F)c(Nc3ccc4c(n3)NC(=O)C(C)(C)O4)n2)cc(OC)c1OC
IC50 (Cathepsin E (CTSE, Homo sapiens, UniProt P14091)): > 10 µM

[2H]c1c([2H])c([C@]2([2H])CCCN2C(=O)C(C)(C)Oc2ccc3cn[nH]c3c2)c([2H])c([2H])c1C([2H])([2H])[2H]
remaining binding (STK17B (Homo sapiens, UniProt O94768); KINOMEscan; 1 µM; baseline: DMSO control): 65%
